Measurements pooled from the literature.
Parts stem from different laboratories: compare values within a part only.

Sample 1 — technique: competition protein-binding microarray; form: double-stranded DNA, one strand shown; sample: in vitro; concentration: 2 µM; with: Cbf1 competitor, 0.05 µM; direction: higher = stronger binding; shared flanks, not repeated: … GTCTTGATTCGCTTGACGCTGCTG
Target: Phosphate system positive regulatory protein PHO4, full length, GST-tagged (PHO4, Saccharomyces cerevisiae, UniProt P07270, residues 1-312)
Setting: whole 60-bp probe, lowest competitor level
Residues (chain): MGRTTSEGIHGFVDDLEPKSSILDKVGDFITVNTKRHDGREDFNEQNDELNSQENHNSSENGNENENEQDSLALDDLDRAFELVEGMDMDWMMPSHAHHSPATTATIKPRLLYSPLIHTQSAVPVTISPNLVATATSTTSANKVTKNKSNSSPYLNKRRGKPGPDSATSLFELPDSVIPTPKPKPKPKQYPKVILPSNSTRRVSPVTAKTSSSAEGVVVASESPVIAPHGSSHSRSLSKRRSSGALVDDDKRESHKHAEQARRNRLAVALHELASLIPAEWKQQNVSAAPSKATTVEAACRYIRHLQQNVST
Sequence	fluorescence intensity [a.u.]
CCAGTACGATTCCGTCACGTGACTCGCGATCAACTA	13100
TGTGGCGATAAGTCCCACGTGAAGGTACAACTTCTC	13300
GGCCTTGGTAATGGGAACGTGGCCGAAAACGGCGAG	14600
GGCCTTAACGGCAGCATCGTGGATTAACTTGGATTT	8270
CTTTGAAAAGCTGCCAACGTGACAAAACGTTCTGAT	13400
TGGTTGAGTTTTACCCACGATACCGATATTCTGAAC	8090
ATGGCTACTTTTATCCCCGTGACGAAATCTATCACT	7780
TTTGCAAGTATATATCTGTATGTATCCATATTTAGA	3470
AGTCCTTTTCTTATGCTCGTGGTGATTGTCAGTCTT	10700
CATACCCAACCTTGCGAAGTGGGTGAAGATATTTGT	4040
GGCTTCTTGAGTGTAAACGTGAGCCCTGTAATCTCA	8670
TTTCAGGTTCTTGTACACGTGGAACCGCCCGATATA	15000
CGTCCTAGCGATTGACTCGTGGGTGCCATGAGGAAG	12800
TGAAATCGAGCCGGCCTCGTGAAAAGGTGTAAAAAA	5820
TTCCGCAATAGCCAACACGTGTGGAGGAACTTCAAG	17600
TAACGTTCGTCGGGACATATGACTTGAAAAATGTCC	3830
TGCGCAACAACTTGTCACATGACTTTATGTCTAGAA	5740
GAGATACAACACCATCACGTTTAAAAGCCTTGTTGG	9060
CTGAGTCCGACATCGCTCGTGTAGTTATTTGTAAAA	7810
ACCCCGCTTCCACCGCCGTTGTTGTTGTTGTTGTTG	2960
CTTGCGATTCCTCTCCTCGTGAGAGGAGATACCGTT	6540
CGTCCTAGTGATTGTCACATTACTTCCATGAGGAAG	5080
TATACTAGGTAGTTACACGTGAAATTATTGAATCAA	13500
CCGCGGATGATTTCTCACGTTTATCTGAAGAGGACT	9310
TTGCATTTCGGGCCTTTCGTGCCGAACTTTGCCAGT	4220

Sample 2 — target: human cyclin B2; read-out: peptide binding; technique: yeast competitive growth sequencing; form: peptide; organism: Saccharomyces cerevisiae; strain: cyclin B2-Cln2 fusion; concentration: concentration not given; setting: combined libraries; direction: direction not given
Sequence	binding enrichment score
GSPLKKLFTSTAL	-0.843
GSPLKALFTSTGL	-0.0894
GSPLKKLFTATGL	0.408

Sample 3 — technique: RNAcompete; form: RNA; sample: in vitro; concentration: 20 nM; setting: 7-mer, probes averaged, single round; relative to: mean of 7-mers; direction: higher = stronger binding
Target: PABPC1L2, full length, GST fusion (mouse, UniProt A0ABA7IW68)
Construct (chain): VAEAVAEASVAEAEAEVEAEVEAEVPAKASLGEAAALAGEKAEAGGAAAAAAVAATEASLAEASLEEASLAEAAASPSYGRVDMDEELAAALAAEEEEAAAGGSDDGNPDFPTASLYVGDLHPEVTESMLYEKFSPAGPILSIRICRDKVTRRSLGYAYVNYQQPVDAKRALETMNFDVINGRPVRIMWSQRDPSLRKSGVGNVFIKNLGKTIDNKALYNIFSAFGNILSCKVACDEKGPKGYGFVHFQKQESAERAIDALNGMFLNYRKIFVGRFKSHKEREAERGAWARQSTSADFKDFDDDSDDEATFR
Sequence	7-mer Z-score
UGAUUCG	-0.235
UACGAGU	-0.171
GAAAAUG	2.9
GAAUCAG	0.0768
UAUUACU	-0.331
GUGAAGA	-0.0428
GCCGCAU	-0.186
AGUAAUG	-0.00652
CAGCCCG	-0.365
UGGUCGU	-0.487
CCUCGCA	-0.374
UUUGUGA	-0.273
GUCCGUA	-0.237
CAACUUA	-0.262
AAUUGAC	0.22
UAUUAGA	-0.132
CUACUCG	-0.3
UAUAAAU	2.22

Sample 4 — technique: protein binding microarray; form: double-stranded DNA, one strand shown; sample: in vitro; concentration: not given; relative to: not given; direction: higher = stronger binding
Target: Histone acetyltransferase KAT6A, winged helix 2, GST fusion (KAT6A, Homo sapiens, UniProt Q92794, residues 85-181)
Setting: 8-mer, flanks averaged, mean of 2 arrays, mostly near background
Construct (chain): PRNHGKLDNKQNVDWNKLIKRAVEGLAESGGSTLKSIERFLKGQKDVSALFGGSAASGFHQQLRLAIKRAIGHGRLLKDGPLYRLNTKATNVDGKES
Sequence	E-score
CCAACAGC	0.0908
ACCCAACC	-0.13
ACCCTTCT	-0.109
CCGCAAAC	0.193
GGGCCCCC	0.161
AAACCTCG	-0.0155
TCGAACGA	-0.158
AAGAGAAT	0.123
AAACACGG	0.0386
ACAGGACG	-0.192
CAGCCGTA	-0.0211
CCCGTAGA	-0.2
CGCCGGCA	0.241
CACGCAAC	0.122
CGGCGGAA	0.116
AGGAGAGG	-0.0132

Sample 5 — technique: RNA Bind-n-Seq; form: RNA; sample: in vitro; concentration: 365 nM; relative to: no-protein control; direction: higher = stronger binding
Target: RNA binding protein fox-1 homolog 2, RRM domain, GST-SBP tag (RBFOX2, Homo sapiens, UniProt O43251-10, residues 100-194)
Setting: natural RNA segment, single round, ends assumed
Shared flanks, not repeated: GGGAGUUCUACAGUCCGACGAUC … UGGAAUUCUCGGGUGCCAA
Residues (chain): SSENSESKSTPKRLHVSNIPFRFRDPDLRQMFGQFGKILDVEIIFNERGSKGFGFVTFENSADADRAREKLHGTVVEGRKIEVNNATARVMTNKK
Sequence	RBNS enrichment (R)
CAAAAAGAGGCAGAUGAUAGACACUGGGGUAGGGUCAUACCACAGGGAAAUACCUUUCCUGGGCUUGUUUUCUAGCAUAUCACUGACCUGGGAUCUUUGGGUGAUCAAGG	0.269
GUGGAUGAUUAACGGGCCUUUUUCACUUAGAAGCUGCACAUUAUGGAGCAUUAAACACUUUUGUCAUGAUGCUGGUGGCCUUCUGCUUGCUUGUAUCCCUGGCCUGGGUC	0.795
UACCCAGCAGGUAUCACUUGGUAAAAAUACAAGAGCAAAGCCACUUGAGACUGAAGGUUCUUUAAAGACCGUAAGGAUGGCUUCCGACGUGUCAUGCUGCUGCUGUGAUC	0.85
UGCUGCCAUUUGUAUUCAGCUGAAGAAGUCACUAUUGUGUAUAUACUCAAGGCUUCUUAUUUUUCUUCUUUUCUAAAUGCUCUUGGACAUUAUUGGGCUUGCAGAGUUCC	0.535
GUGCCCUACGCCUCACUGCUGGGGCCCUGGACCCAGACCCAGGCAGGAGGGCCGACGGGUGCCUCGGUCGCUCUGGGGGCAGUUUAGAUGCUGUGAAAUUAAACCCGUUC	0.366
AUUGUCUCUGAAAAUAAUGACAGUUUAUAAAAUGUUUAGGUACAAAGGCAUAAAUGAUAAUAAGUAAGCCUGGUAAUAUGUUCUUAUUUAAGAAGAACCUGAGAAGGUUU	0.478
CCACAUGUACAGUGUCUGUAUAUAAAUGUGCUGUAUCUGUUCAUUUCUAUGACUGCAGGGUUUUUUUAUACAGUGUUUUUGGAUUCAUAAUAAAUUGAUGGUUUUUUAUG	0.606
AAUUCAGGGUCUCAUUUGGAACAUUUUUCCUUUGGGUAGUGGUCAGGAACUGGUGUAAGUCCUCCAGACACAUCCCUGUGUAAGGAAGCCAGGCACUGUUUCUCUGAGUU	0.269
CCUUGGCAUGCCUUGCUCACAAUACUCAUUAUGCUGUGUGGGAUUUCCUGAUUACUAGAAGCUGACCUCUGCUAUCCUGGGUAAGAACGCCCUGAGUACGGGUACCAUGC	0.805
CAAGUGGGUCUGGGCAGCUUCCCCUGAGCUUACGUUUUGUUUUGUUUUGUUUUUUCGAUGUGAAUAGAGAACUCGGACAUUUUGCUGCUAAACAAUCUCCCCUCCCUCAC	0.713
AAGCAGUUUUUCCUUUUAUUGCAGUUUUUGUUUAUCUGCCAUAGAAUUUCCUUAUACUGUGGCUUGGUAUUAUUCAAGAUUAGCUAUUUCGCUGGUAUUACAUCUUUUUA	0.818
ACAGAUUAAAUUUAAUUAAUUAAUUCAAAACAUGUUAAACGUUACUUUCAUGUACUAUGGAAAAGUACAAGUAGGUUUACAUUACUGAUUUCCAGAAGUAAGUAGUUUCC	0.632

Sample 6 — technique: RNA Bind-n-Seq; form: RNA; sample: in vitro; concentration: 1 µM; setting: whole 134-nt RNA, ends assumed; with: 150 mM KCl; relative to: input library; direction: higher = stronger binding
Target: Ras GTPase-activating protein-binding protein 1, RRM domain (G3BP1, Homo sapiens, UniProt Q13283)
Chain of UniProt Q13283 (whole entry, looked up): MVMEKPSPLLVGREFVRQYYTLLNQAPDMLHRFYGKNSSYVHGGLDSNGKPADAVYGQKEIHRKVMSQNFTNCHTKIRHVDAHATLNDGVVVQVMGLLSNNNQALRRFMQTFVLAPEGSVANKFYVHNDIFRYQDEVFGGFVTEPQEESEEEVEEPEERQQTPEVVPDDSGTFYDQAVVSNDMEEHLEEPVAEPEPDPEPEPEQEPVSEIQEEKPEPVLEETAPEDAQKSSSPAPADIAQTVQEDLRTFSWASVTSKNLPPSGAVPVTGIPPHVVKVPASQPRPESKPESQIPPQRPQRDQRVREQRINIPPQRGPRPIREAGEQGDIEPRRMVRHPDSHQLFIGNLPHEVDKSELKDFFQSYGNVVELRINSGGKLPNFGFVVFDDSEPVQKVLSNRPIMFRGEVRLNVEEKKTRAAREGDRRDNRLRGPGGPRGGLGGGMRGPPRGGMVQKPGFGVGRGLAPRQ
Shared flanks, not repeated: GGGAGUUCUACAGUCCGACGAUC … UGGAAUUCUCGGGUGUCAAGG
Sequence	log2 enrichment
UGGGAGGUGGAUUUUGUUUAUUUUUUUAGCUCAUUUCCAGGGGUGGGAAUUUUUUUUUAAUAUGUGUCAUGAAUAAAGUUGUUUUAGAAA	0.792
UCCUGUGCUACACAUCGUAUGUACCGAAUCAAACCCCCAAACCCCCAAACCCCCCCAAAAAAGUAUUAUGUUACGCCGUUCGGAUCUGCA	-0.186
CUCAAGUCCUGUGCUACACAUCGUAUGUACCGAAUCGGGAAAGGGUGGGUGGGAAAGUAUUAUGUUACGCCGUUCGGAUCUGCACUUCCA	0.683
UAACUUUAGAGGAGGAUCUGAUGGAUAUGGCAGUGGACGUGGAUUUGGCGAUGGCUAUAAUGGGUAUGGAGGAGGACCUGGAGGUGGCAA	-0.79
GUCCUGUGCUACACAUCGUAUGUACCGAAUCGGGUUUUUGGGUUUUUUUGGGAAAGGGAAAGUAUUAUGUUACGCCGUUCGGAUCUGCAC	0.118
GUCCUGUGCUACACAUCGUAUGUACCGAAUCGGAAAAAGGAAAAAAAGGUUUUUUUGGAAAGUAUUAUGUUACGCCGUUCGGAUCUGCAC	-0.0622
GCAGGAAGUAAAAACAAAUGGAAAUGCUUCGAAAAGUGGCAGGGGUGGGGGUUGCUAAGGAAAGGGUGGGAUGGGAGUGGGUAAAGAGUU	1.52
UGGCCCUGGUGGCAUGCGGGGAGAAAGAGGUGGCCUCAUGGAUCGUGGUGGUCCCGGUGGAAUGUUCAGAGGUGGCCGUGGUGGAGACAG	0.956
CACAGACAACACGCAACCACACAGACACAGAGGGAAGGGGUUGGGAUGGGGACAGGGUGCACAGCAGGGCGGGGUAGGACCCCAGCCCCU	-0.0581
UUCCCUGAAGAUGAGAUCCCAGAGAAGGCCUGCAGGCGCCUGCUUGAAGGGAGGCGGCAGAAGAAGACGAAGAAGCAGAAGCGUCUGCUC	-0.0309
ACCAUGCAGGUGGGCAUCUUUGGGAAGUGGGGCAAGGGGGGGUUAGGGAGGGGGGUAACACUUUGGGAACAGGUGGUCCCAGGUCGUUUC	1.02
UCCAGCCACUCACCGGCGAUCCAGGUCCAGAACCCCCCUGAUAAGCCGACGUAGGUCCAGAUCUCGAACUUCACCAGUCAGCCGGAGACG	-0.26
CAAGUCCUGUGCUACACAUCGUAUGUACCGAAUCGGGAAAAAGGGUGGGUUUGGGAAAGUAUUAUGUUACGCCGUUCGGAUCUGCACUUC	0.904
UCAAGUCCUGUGCUACACAUCGUAUGUACCGAAUCGGUUUGGUUUUUUUGGUGGAAAGUAUUAUGUUACGCCGUUCGGAUCUGCACUUCC	-0.235

Sample 7 — technique: universal PBM; form: double-stranded DNA, one strand shown; sample: in vitro; concentration: not given; direction: higher = stronger binding
Target: Sal-like protein 4, full length isoform B (SALL4, Homo sapiens, UniProt Q9UJQ4-2, residues 1-616)
Setting: 8-mer, flanks averaged, mean of replicates
Sequence	E-score
ATAGGGGA	0.0713
TGAGGCCA	-0.0821
CAGGAGGC	-0.216
AGTTACGA	0.106
CGAAGGGC	-0.256
GGGCGCAA	-0.22
CTCAGTCC	-0.2
GGATTCCC	-0.299
CAGTAGTA	0.091
ACGTGCTC	-0.206
CGCCGGTA	-0.219
ACCAGTCA	-0.0902
CGTCGGTA	-0.0856
GTGTTCGA	-0.0863
AGAGTCAA	0.0442
ATCGTTCA	0.127
ACCGAGCA	-0.265

Repeated from above (sample 3):
Sequence	7-mer Z-score
UGAUUCG	-0.235
UACGAGU	-0.171
GAAAAUG	2.9
GAAUCAG	0.0768
UAUUACU	-0.331
GUGAAGA	-0.0428
GCCGCAU	-0.186
AGUAAUG	-0.00652
CAGCCCG	-0.365
UGGUCGU	-0.487
CCUCGCA	-0.374
UUUGUGA	-0.273
